Measured values collected from several papers.
Numbered parts are unrelated; each lists some results of a single study. Numbers after ± are the reported error.

Amino acid sequences for entries named in this document (tags omitted). Residues count along the entry.
UniProt Q9Y6W6, 321-464 limits assumed: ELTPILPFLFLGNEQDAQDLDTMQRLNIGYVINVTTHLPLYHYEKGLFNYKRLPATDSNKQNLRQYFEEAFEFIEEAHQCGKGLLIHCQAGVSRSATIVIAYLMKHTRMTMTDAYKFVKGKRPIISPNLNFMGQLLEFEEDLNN
UniProt Q14790, 214-479 D374A/D384A/C409S/C433S limits assumed: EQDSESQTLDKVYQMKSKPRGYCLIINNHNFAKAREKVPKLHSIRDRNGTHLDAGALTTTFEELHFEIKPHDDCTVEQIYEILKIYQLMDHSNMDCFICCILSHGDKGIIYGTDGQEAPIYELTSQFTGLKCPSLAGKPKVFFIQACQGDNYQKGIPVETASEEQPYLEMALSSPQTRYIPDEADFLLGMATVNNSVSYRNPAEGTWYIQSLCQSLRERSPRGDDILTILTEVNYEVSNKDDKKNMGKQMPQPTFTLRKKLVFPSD

Block 1
Organism: Saccharomyces cerevisiae
Read-out: cell growth
Method: doubling time
Strain: SEC14 -136 allele
Notes: Sec14 reduced ~7-fold
| Structure (SMILES) | IC50 [µM] |
| --- | --- |
| O=C(c1cccc(Cl)c1)N1CCN(c2ccc(F)cc2)CC1 | > 200 |
| O=C(c1ccc(Cl)c([N+](=O)[O-])c1)N1CCN(c2ccccc2)CC1 | 24.1 ± 5.3 |
| O=C(c1ccc(Cl)c([N+](=O)[O-])c1)N1CCN(c2cccc(C(F)(F)F)c2)CC1 | 17.8 ± 4.7 |

Single results of other studies
| Structure (SMILES) | tested on | test | test system | setting | scale | endpoint | value |
| --- | --- | --- | --- | --- | --- | --- | --- |
| CC(=O)N[C@@H](Cc1c[nH]cn1)C(=O)N[C@H](C(=O)NCC(=O)N[C@@H](Cc1ccccc1)C(=O)N[C@@H](CC(C)C)C(=O)N[C@H](C(=O)N[C@@H](CCC(=O)O)C(=O)N[C@@H](Cc1cc(=O)oc2cc(OP(=O)(O)O)ccc12)C(=O)N[C@H](C(=O)N[C@@H](C)C(=O)N[C@H](C(=O)N[C@@H](CCCNC(=N)N)C(=O)N[C@@H](Cc1c[nH]c2ccccc12)C(N)=O)[C@@H](C)O)C(C)C)[C@@H](C)OP(=O)(O)O)[C@@H](C)O | Dual specificity protein phosphatase 10 (Homo sapiens, UniProt Q9Y6W6) | peptide hydrolysis, substrate |  | pH 6.0, 37 °C, 50 nM enzyme, together with: ERK activation-loop peptide |  | Km | 25.8 µM |
| CN(C)S(=O)(=O)c1ccc(NCCCCN2CCC(Nc3nc4ccccc4n3Cc3ccc(F)cc3)CC2)c2nonc12 |  |  | hERG HEK293 membranes |  | relative to: buffer | emission blue shift | ~5 nm |
| O=C(c1ccc(N2CCOCC2)cc1)N1CCC[C@@H](N(C(=O)CCl)c2ccccc2)C1 | Caspase-8 (CASP8, Homo sapiens, UniProt Q14790, C409S/C433S/D374A/D384A) | competitive gel-based ABPP | HEK293T cell lysate | 10 µM, 1 h |  | probe labelling | > 90% |

Excerpt of the above (single results of other studies):
| Structure (SMILES) | tested on | test | test system | setting | scale | endpoint | value |
| --- | --- | --- | --- | --- | --- | --- | --- |
| CN(C)S(=O)(=O)c1ccc(NCCCCN2CCC(Nc3nc4ccccc4n3Cc3ccc(F)cc3)CC2)c2nonc12 |  |  | hERG HEK293 membranes |  | relative to: buffer | emission blue shift | ~5 nm |
